Results of several laboratories.
Lines come from different studies, so protocols differ. ± marks the error that the study gave.
Cell line: HeLa

O=[N+]([O-])c1ccc(C=[N+]2N=C(Nc3ccccc3)[S][Pt-]2([Cl])[Cl])s1 — result for “minimal cytotoxic concentration”: 20 µM (altered cell morphology, microscopy; confluent cultures).
COc1ccc(-c2cc(COC3c4cc5c(cc4C(c4cc(OC)c(OC)c(OC)c4)C4C(=O)OCC34)OCO5)on2)cc1 (centres unmarked) gave a caspase-3/7 activation of 81.3% (Caspase-Glo 3/7; 20 µg/mL, 24 h).
The superoxide level of O=c1c(/C=N/NC(=S)N/N=C/c2cc(Cl)ccc2O)coc2ccccc12 is reported as 150 to 160% (DHE flow cytometry; 1 µM, 24 h; reference: control).
COc1ccc(CCC(=O)Nc2nc3ccc(Cl)cc3s2)cc1OC: “free cholesterol level” “no effect” (shotgun lipidomics; 10 µM, 18 h).
For S=c1n(-c2ccccc2)c2c3ccccc3nc3[n+]2[n]1[Ir-3]12([S]3)([c]3ccccc3-c3cccc[n+]31)[c]1ccccc1-c1cccc[n+]12, the phototoxicity index was > 3330 (reference: IC50 dark over IC50 light).
COc1cc2c(=O)c(-c3ccc4c(c3)OCO4)coc2c2c1OC(C)(C)C=C2 gave an apoptotic cells of 44.1% (annexin V/PI flow cytometry; 20 µM, 48 h).
Clc1ccc(C=[N+]2N=C(Nc3ccccc3)[S][Pt-]2([Cl])[Cl])s1 — result for “minimal cytotoxic concentration”: 100 µM (altered cell morphology, microscopy; confluent cultures).
C=C1C(=O)OC2C=C(C)CCC=C(C(=O)OC(C)C(C)(O)C(=O)OC3C(OC(C)=O)C(C(=O)OC)=CCCC(C)=CC4OC(=O)C(=C)C43)CC(OC(=O)C(C)=CC)C12 (centres unmarked): “G2/M phase cells” 2.7 (PI flow cytometry; 3 µM, 48 h, unit not given; reference: untreated).
CC(C)(C)c1cc2c(O)c(c1)Cc1cc(C(C)(C)C)cc(c1OCC(=O)Nc1cncc3ccccc13)Cc1cc(C(C)(C)C)cc(c1O)Cc1cc(C(C)(C)C)cc(c1OCC(=O)Nc1cncc3ccccc13)COC2 gave an inhibition of 75 to 94% (cell growth, MTT; 15 µM).
Under “cytosolic entry efficiency”, CC(C)[C@@H]1NC(=O)[C@H](Cc2ccc(O)cc2)NC(=O)[C@H](CCCNC(=N)N)NC(=O)[C@H](CCCNC(=N)N)NC(=O)[C@@H]2CCCN2C(=O)[C@H]2CCCN2C(=O)[C@@H](CCCNC(=N)N)NC(=O)[C@H](Cc2ccc3ccccc3c2)NC(=O)[C@H](Cc2ccccc2)NC(=O)[C@H](CC(N)=O)NC1=O is recorded as 34% (flow cytometry; NF-labelled via miniPEG-Lys at Asn; 5 µM, 2 h; reference: CPP9 cyclo(fΦRrRrQ) as 100%).
CC(=O)N[C@H](CCCNC(=N)N)C(=O)N[C@H](CCCCN)C(=O)N[C@H](Cc1ccc(O)cc1)C(=O)N[C@H](CS)C(N)=O — result for “late apoptotic cells”: 17.8% (Annexin V/PI flow cytometry; 50 nM, 24 h).
The GI50 of O=C(CCCCCCC(=O)Nc1ccccc1)NO is reported as 2840 nM (cell growth or viability, XTT; 72 h).
Under cellular uptake, CC(=O)N[C@@H](CCCCN)C(=O)N[C@@H](CCCCN)C(=O)N[C@@H](CCCCN)C(=O)N[C@@H](CCCCN)C(=O)N[C@@H](CCCCN)C(=O)N[C@@H](CCCCN)C(=O)N[C@@H](CCCCN)C(=O)N[C@@H](CCCCN)C(=O)N[C@@H](CCCCN)C(=O)N[C@@H](CCCCN)C(=O)N[C@@H](CCC(N)=O)C(=O)N[C@@H](Cc1c[nH]c2ccccc12)C(=O)N[C@@H](CCC(N)=O)C(=O)N[C@@H](Cc1c[nH]c2ccccc12)C(=O)N[C@@H](CCC(N)=O)C(=O)N[C@@H](Cc1c[nH]c2ccccc12)C(=O)N[C@@H](CCC(N)=O)C(=O)N[C@@H](Cc1c[nH]c2ccccc12)C(=O)N[C@@H](CCC(N)=O)C(=O)N[C@@H](Cc1c[nH]c2ccccc12)C(=O)N[C@@H](CCC(N)=O)C(=O)N[C@@H](Cc1c[nH]c2ccccc12)C(=O)N[C@@H](CCC(=O)O)C(=O)N[C@@H](CCC(=O)O)C(=O)N[C@@H](CCC(=O)O)C(N)=O is recorded as “no inhibition” (FITC co-assembly; 20 µM, endocytosis inhibition, together with: methyl-β-cyclodextrin 5 µM pre-incubation).
Under “G2/M phase cells”, CC1=[N+]2N=C(c3ccccc3)[O][Pd-2]2([Cl])[O+]=C2Oc3ccccc3C=C21 (centres unmarked) is recorded as 18.1% (flow cytometry; IC50, 24 h).
For Cc1cc(/C=C2\CN(C(C)C)C/C(=C\c3cc(C)c(O)c(C)c3)C2=O)cc(C)c1O, the maximum inhibition was 45.1 ± 9.41% (cell viability, MTT; 24 h).
For O=C(O)COc1cc2c(OCC(=O)O)cc1Cc1cc(OCC(=O)O)c(cc1OCC(=O)O)Cc1cc(OCC(=O)O)c(cc1OCC(=O)O)Cc1cc(OCC(=O)O)c(cc1OCC(=O)O)Cc1cc(OCC(=O)O)c(cc1OCC(=O)O)Cc1cc(OCC(=O)O)c(cc1OCC(=O)O)C2, viability read “no effect” (CCK-8; concentration not given, 24 h).
The inhibition of CC(C)CCOc1cc(C[n+]2cn(CCC(C)C)c3ccccc32)c(OCCC(C)C)c2ccccc12 is reported as 50% (qRT-PCR, item: PCNA mRNA; 10 µM; reference: control).

Excerpt of the above:
Under “G2/M phase cells”, CC1=[N+]2N=C(c3ccccc3)[O][Pd-2]2([Cl])[O+]=C2Oc3ccccc3C=C21 (centres unmarked) is recorded as 18.1% (flow cytometry; IC50, 24 h).
For Cc1cc(/C=C2\CN(C(C)C)C/C(=C\c3cc(C)c(O)c(C)c3)C2=O)cc(C)c1O, the maximum inhibition was 45.1 ± 9.41% (cell viability, MTT; 24 h).
For O=C(O)COc1cc2c(OCC(=O)O)cc1Cc1cc(OCC(=O)O)c(cc1OCC(=O)O)Cc1cc(OCC(=O)O)c(cc1OCC(=O)O)Cc1cc(OCC(=O)O)c(cc1OCC(=O)O)Cc1cc(OCC(=O)O)c(cc1OCC(=O)O)Cc1cc(OCC(=O)O)c(cc1OCC(=O)O)C2, viability read “no effect” (CCK-8; concentration not given, 24 h).
